Results collected from several papers.
A part holds a random share of what one study measured.

Set 1
Target: Replicase polyprotein 1ab, polymerase (rep, Severe acute respiratory syndrome coronavirus 2, UniProt P0DTD1)
Read-out: enzyme activity
Mode: inhibitor
Tested at: 20 µM
| SMILES | inhibition [%] |
| --- | --- |
| NC(N)=NCCC(=O)O | -1.01 |
| c1cc(-c2cnn3cc(-c4ccc(OCCN5CCCCC5)cc4)cnc23)ccn1 | 9.69 |
| CCCC[P+](CCCC)(CCCC)Cc1ccc(NC(=O)[C@H](Cc2ccc3ccccc3c2)NC(=NC2CCCCC2)NC2CCCCC2)cc1 | 40 |
| CC(=O)NC(Cc1ccccc1)C(=O)O (stereo not drawn) | 0.66 |
| CCCN(C/C=C/I)C1CCc2cccc(O)c2C1 (stereo not drawn) | 4.61 |
| CC(C)c1cccc2c(-c3ccccc3)cc(-c3ccc(-c4ccc(C(=O)O)cc4)[nH]3)nc12 | 5.65 |
| Cc1ccc(S(=O)(=O)Nc2ccc3c(c2)c(C(=O)C(F)(F)F)cn3CC(=O)N[C@@H](CC(C)C)C(=O)O)cc1 | -3.41 |
| O=C(Oc1cccc2cccnc12)c1ccccc1 | -4.42 |
| O=C(O)COc1cccc(-c2ocnc2-c2nc(-c3ccccc3)c(-c3ccccc3)o2)c1 | 1.38 |
| CC1(C)O[C@@H]2C[C@H]3[C@@H]4C[C@H](F)C5=CC(=O)C=C[C@]5(C)[C@H]4[C@@H](O)C[C@]3(C)[C@]2(C(=O)CO)O1 | 18.5 |
| C=C1[C@@H](C)[C@H]2[C@H](Cc3ccccc3)NC(=O)[C@]23OC(=O)/C=C/[C@H](O)CCC[C@@H](C)C/C=C/[C@H]3[C@@H]1O | -2.1 |
| Cc1oc2ccccc2c1CNC(=O)NCc1cccs1 | -5.86 |
| Nc1nc(N)nc(NC2CC2)n1 | -5.94 |

Set 2
Target: Histone acetyltransferase KAT6A, winged helix 2, GST fusion (KAT6A, Homo sapiens, UniProt Q92794, residues 85-181)
Technique: protein binding microarray
Form: double-stranded DNA, one strand shown
Matrix: in vitro
Tested at: not given
Setting: 8-mer, flanks averaged, mean of 2 arrays, mostly near background
Relative to: not given
Direction: higher = stronger binding
Target sequence (chain): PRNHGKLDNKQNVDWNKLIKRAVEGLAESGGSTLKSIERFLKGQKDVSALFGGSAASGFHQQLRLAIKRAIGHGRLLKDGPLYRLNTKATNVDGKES
| Strand | E-score |
| --- | --- |
| ATACACAA | -0.019 |
| CGCACCCC | -0.00481 |
| ATTTGCTG | 0.163 |
| ATCTTTGA | 0.0449 |
| CTATTTGA | 0.017 |
| TATTGTCA | -0.0149 |
| CTCGCCAC | 0.1 |
| CTCTATCA | -0.0526 |

Set 3
Target: Interferon regulatory factor 5, full length, phosphomimetic (IRF5, Homo sapiens, UniProt Q13568-2, residues 1-514, S451D/S453D/S456D/S462D)
Technique: protein-binding microarray
Form: double-stranded DNA, one strand shown
Matrix: in vitro
Tested at: 940 nM top
Setting: 60-bp whole probe
With: salmon DNA 0.4 mg/ml
Relative to: random background probes
Direction: higher = stronger binding
Shared flanks, not repeated: GCCTAGCAC … GTCTTGATTCGCTTGACGCTGCTG
| Strand | fitted relative affinity |
| --- | --- |
| GACGATATCAGTTTTGAGACGTGCTAG | 0.113 z-score |
| TTAGGACTGCTACTGCTTTCGTGCTAG | -0.268 z-score |
| GACGGAATCGGTCTCGGGACGTGCTAG | 1.23 z-score |
| TTAGGTTTCCTTTTCTTTTAGTGCTAG | 2.44 z-score |
| TCATGCTTCAGGTTTACCACTGTGCTA | 0.0392 z-score |
| TTCACTTTAAATTAGACTTAGTGCTAG | 0.407 z-score |
| TTAGGTTTCCTTTCCATTTAGTGCTAG | 2.08 z-score |
| TTATGACTGGACTTTCGGTTAGTGCTA | 2.84 z-score |

Further values, each from its own experiment
| SMILES | cell line | test | system | setting | scale | endpoint | value |
| --- | --- | --- | --- | --- | --- | --- | --- |
| NC(=O)c1ncn([C@@H]2O[C@H](CO)[C@@H](O)[C@H]2O)n1 | HEK-293T | pseudovirus infection, FDA-approved drug library screen | VSV pseudotyped with SARS-CoV-2 spike | 10 µM, 16 h | relative to: vehicle-treated | GFP-positive cells | 89.4% |

Some of these lines once more (set 1):
| SMILES | inhibition [%] |
| --- | --- |
| Cc1oc2ccccc2c1CNC(=O)NCc1cccs1 | -5.86 |
| CC1(C)O[C@@H]2C[C@H]3[C@@H]4C[C@H](F)C5=CC(=O)C=C[C@]5(C)[C@H]4[C@@H](O)C[C@]3(C)[C@]2(C(=O)CO)O1 | 18.5 |
| O=C(O)COc1cccc(-c2ocnc2-c2nc(-c3ccccc3)c(-c3ccccc3)o2)c1 | 1.38 |
| c1cc(-c2cnn3cc(-c4ccc(OCCN5CCCCC5)cc4)cnc23)ccn1 | 9.69 |
